# Results collected from several papers.
# Lines come from different studies, so protocols differ. ± marks the error that the study gave.
# nanA: Sialidase A (nanA, Streptococcus pneumoniae, UniProt P62575)
# Tripartite terminase subunit 3 C-terminal nuclease domain: Tripartite terminase subunit 3, C-terminal nuclease domain (Human betaherpesvirus 5, UniProt P16732)
# APP: Amyloid-beta precursor protein (APP, Homo sapiens, UniProt P05067)
# HRH4: Histamine H4 receptor (HRH4, Homo sapiens, UniProt Q9H3N8)
SMILES,target,test,system,conditions,inhibition
O=C(Nc1ccc2c(c1)B(O)OC2)c1ccccc1OCc1ccccc1,"Genome polyprotein, NS2B-NS3 protease (dengue virus type 2, UniProt P29990)","enzyme activity, FRET",dengue virus serotype 2,"50 µM, added: substrate 50 µM",14 ± 5%
Nc1ccncc1,"Voltage-gated potassium channel, KQT; KCNQ2(Kv7.2)/KCNQ3(Kv7.3) (KCNQ3/KCNQ2, Homo sapiens, UniProt O43525+O43526)","ion current, antagonist, automated patch clamp",HEK293,10 µM,-2%
CC(=O)N[C@@H]1C(N)C[C@](OC2C(O)[C@H](Oc3ccc([N+](=O)[O-])cc3)OC(CO)[C@@H]2O)(C(=O)O)OC1[C@H](O)[C@H](O)CO (some centres unmarked),nanA,,,"8 µM, pH 6",9 ± 8.3%
O=C(Nc1cccc(B(O)O)c1)c1cccc(OCc2ccccc2)c1,"Genome polyprotein, NS2B-NS3 protease (dengue virus type 2, UniProt P29990)","enzyme activity, FRET",dengue virus serotype 2,"50 µM, added: substrate 50 µM",≤ 10%
C=C(C)[C@H]1Cc2c(ccc3c2O[C@@H]2COc4cc(OC)c(OC)cc4[C@@H]2C3=O)O1,"Toll-like receptor 2 (TLR2, Homo sapiens, UniProt O60603)","SEAP reporter gene, antagonist",HEK-Blue hTLR2,"10 µM, added: Pam3CSK4",> 90%
O=c1[nH]c2c3c(sc2c(=O)n1O)CCC3,Tripartite terminase subunit 3 C-terminal nuclease domain,"endonuclease activity, ELISA",,"20 µM, added: dsDNA",82%
Nc1c2c(nc3c1C(c1cccc([N+](=O)[O-])c1)c1ccc(OS(=O)(=O)c4ccc(F)cc4)cc1O3)CCCC2 (centres unmarked),APP,"Aβ42 self-aggregation, inhibitor, thioflavin T fluorescence",,10 µM,82%
Cn1cccc1-c1cccnc1,HRH4,binding,,50 µM,-18.1%
COC1=C(N)C(=O)c2nc(-c3nc(C(=O)O)c(C)c(-c4ccc(OC)c(OC)c4O)c3N)ccc2C1=O,"Sentrin-specific protease 1 (SENP1, Homo sapiens, UniProt Q9P0U3)","cleavage, ECFP-SUMO1-YFP, SDS-PAGE",,"2 µM, added: SENP1 15 nM",inhibited
O=[N+]([O-])c1ccc2c(c1)B(O)OC2,"Genome polyprotein, NS2B-NS3 protease (West Nile virus, UniProt P06935)","enzyme activity, FRET",,"50 µM, added: substrate 50 µM",≤ 10%
Cc1sc2[nH]c(=O)n(O)c(=O)c2c1C,Tripartite terminase subunit 3 C-terminal nuclease domain,"endonuclease activity, ELISA",,"20 µM, added: dsDNA",100%
COc1ccc(S(=O)(=O)Oc2ccc3c(c2)Oc2nc4c(c(N)c2C3c2cccc(OC)c2)CCCC4)cc1 (centres unmarked),APP,"Aβ42 self-aggregation, inhibitor, thioflavin T fluorescence",,0.1 µM,5.1%
Nc1ncnc2c1ncn2[C@@H]1O[C@H](C[C@@H](N)CC[C@H](N)C(=O)O)[C@@H](O)[C@H]1O,"Genome polyprotein, NS5 methyltransferase domain (Zika virus, UniProt Q32ZE1)","NS5 enzyme activity, inhibitor",,1.562 µM,38.7%
O=c1[nH]c2sc(-c3ccccc3)cc2c(=O)n1O,Tripartite terminase subunit 3 C-terminal nuclease domain,"endonuclease activity, ELISA",,"20 µM, added: dsDNA",85%
C[C@@H]1N=C(c2ccccc2F)c2cc(Br)ccc2-n2cnc(C(=O)O)c21,sigma receptor 1,binding,,10 µM,-2.9 ± 15.6%
COc1cccc(COc2cccc(C(=O)Nc3ccc4c(c3)B(O)OC4)c2)c1,"Genome polyprotein, NS2B-NS3 protease (dengue virus type 2, UniProt P29990)","enzyme activity, FRET",dengue virus serotype 2,"50 µM, added: substrate 50 µM",14 ± 8%
COc1cc(/C=C/C(=O)CC(=O)/C=C/c2ccc(O)c(OC)c2)ccc1O,APP,"Aβ42 self-aggregation, inhibitor, thioflavin T fluorescence",,0.1 µM,6.7%
c1ccc(C(NCCNC(c2ccccc2)c2ccccc2)c2ccccc2)cc1,"Na+/K+-ATPase, pig heart",enzyme activity,,"10 µM, Eurofins selectivity panel",1%
Cn1cc(-c2cccc(N3CCc4c(sc5c4CC(C)(C)C5)C3=O)c2CO)cc(Nc2ccncn2)c1=O,"Mitogen-activated protein kinase 14 (MAPK14, Homo sapiens, UniProt Q16539)","kinase activity, inhibitor, SelectScreen",,"1 µM, added: ATP",3%
O=C(Nc1cnccc1Cl)N1CCN(Cc2ccc3c(c2)OC(F)(F)O3)CC1,"Sigma intracellular receptor 2 (Tmem97, Rattus norvegicus, UniProt Q5U3Y7)","radioligand binding, inhibitor",,"10 µM, rat, added: [3H]ifenprodil",47%
O=c1[nH]c2cc(-c3ccc(Cl)cc3)ccc2c(=O)n1O,Tripartite terminase subunit 3 C-terminal nuclease domain,"endonuclease activity, ELISA",,"20 µM, added: dsDNA",86%
O=c1ccc2ccccc2o1,"3',5'-cyclic-AMP phosphodiesterase 4D (PDE4D, Homo sapiens, UniProt Q08499)",enzyme activity,,"10 µM, SafetyScreen44",7.36%
Nc1ncnc2c1ncn2[C@@H]1O[C@H](C[C@@H](N)CC[C@H](N)C(=O)O)[C@@H](O)[C@H]1O,"DNA adenine methyltransferase CamA (Clostridioides difficile, UniProt Q183J3)",,,concentration not given,> 50%
CCN1C[C@]2(COC(=O)c3ccccc3N3C(=O)C[C@H](C)C3=O)CC[C@H](OC)[C@@]34[C@@H]5C[C@H]6[C@H](OC)[C@@H]5[C@](O)(C[C@@H]6OC)[C@](O)([C@@H](OC)[C@H]23)[C@@H]14,"Neuronal acetylcholine receptor; alpha3/beta4 (Homo sapiens, UniProt P30926+P32297)","ion current, antagonist, whole-cell patch clamp",HEK293T cells,concentration not given,89.51 ± 0.01%
COc1ccc(N2C(=O)N(c3c(C)cccc3Cl)Cc3cnc(Nc4ccc(C5CCN(C)CC5)cc4OC)nc32)nc1,"Serine/threonine-protein kinase LATS1 (LATS1, Homo sapiens, UniProt O95835)",kinase activity,,0.5 µM,5%
O=C1CN=C(c2ccccc2)c2cc(/N=N/c3ccc(S(=O)(=O)O)cc3)ccc2N1,"5-hydroxytryptamine receptor 3A (HTR3A, Homo sapiens, UniProt P46098)","5-HT-induced current, inhibitor, whole-cell patch clamp",CHO cells,"100 µM, visible light, added: 5-HT",85 ± 3%
CN(C(=O)n1cnc(-c2ccc[n+]([O-])c2)c1)C1CCCCC1,HRH4,radioligand binding,,"50 µM, added: [3H]histamine",12%
COc1cc2c3cc1Oc1cc(ccc1O)C[C@@H]1c4c(cc(OC)c(O)c4Oc4ccc(cc4)C[C@@H]3N(C)CC2)CC[N+]1(C)C,"Chrnd/Chrna1/Chrne (Mus musculus, UniProt P02716+P04756+P20782)","end-plate current peak height, two-electrode voltage clamp",mouse hemidiaphragm,"0.1 µM, AChE intact",36%
O=C(Nc1cccnn1)N1CCC(=Cc2cccc(Oc3ccc(C(F)(F)F)cn3)c2)CC1,"Prostacyclin receptor (PTGIR, Homo sapiens, UniProt P43119)","radioligand binding, inhibitor",,"10 µM, human, added: [3H]iloprost",12%
Cc1ccc(S(=O)(=O)Oc2ccc3c(c2)Oc2nc4c(c(N)c2C3c2ccc(Cl)c(Cl)c2)CCCC4)cc1 (centres unmarked),APP,"Aβ42 self-aggregation, inhibitor, thioflavin T fluorescence",,100 µM,75%
O=C(Nc1ccc2c(c1)B(O)OC2)c1cccc(OCc2c(Cl)cccc2Cl)c1,"Genome polyprotein, NS2B-NS3 protease (West Nile virus, UniProt P06935)","enzyme activity, FRET",,"50 µM, added: substrate 50 µM",20 ± 7%
Nc1c2c(nc3c1C(c1cccc([N+](=O)[O-])c1)c1ccc(OCC(=O)c4ccc(Cl)cc4)cc1O3)CCCC2 (centres unmarked),APP,"Aβ42 self-aggregation, inhibitor, thioflavin T fluorescence",,0.01 µM,6.4%
CC(=O)N[C@@H]1C(NC(=N)N)C[C@](OCC2O[C@@H](Oc3ccc([N+](=O)[O-])cc3)C(O)C(O)[C@H]2O)(C(=O)O)OC1[C@H](O)[C@H](O)CO (some centres unmarked),nanA,,,"8 µM, pH 6",6.4 ± 0.3%
O=C(Nc1ccc2c(c1)B(O)OC2)c1cccc(OCC2CCCCC2)c1,"Genome polyprotein, NS2B-NS3 protease (West Nile virus, UniProt P06935)","enzyme activity, FRET",,"50 µM, added: substrate 50 µM",14 ± 2%
Cc1cc(C)cc(COc2cc3c(cc2OCc2cc(C)cc(C)c2)[C@H]2C[C@](O)(Cc4cn(CC(=O)Nc5ccc(S(=O)(=O)F)cc5)nn4)C[C@H](C)N2CC3)c1,"Rab GDP dissociation inhibitor beta, with Rab1A (Homo sapiens, UniProt P50395)","GDI2-Rab1A interaction, NanoLuc complementation",,6.25 µM,92.9%
CN1CCN(c2cc(-c3ccncc3)c(-c3ccc4ccccc4c3)nn2)CC1,"Muscarinic acetylcholine receptor M5 (CHRM5, Homo sapiens, UniProt P08912)","antagonist, FLIPR",,10 µM,16.7%
COc1cc(Nc2ncc(F)c(Nc3ccc4c(n3)NC(=O)C(C)(C)O4)n2)cc(OC)c1OC,"cAMP-dependent protein kinase catalytic subunit beta (PRKACB, Homo sapiens, UniProt P22694)",KINOMEscan,,"10 µM, PKAC-beta",92%
N=C(N)Nc1ccc2c(c1)B(O)OC2,"Genome polyprotein, NS2B-NS3 protease (dengue virus type 2, UniProt P29990)","enzyme activity, FRET",dengue virus serotype 2,"50 µM, added: substrate 50 µM",21 ± 8%
O=c1[nH]c2scc(-c3ccccc3)c2c(=O)n1O,Tripartite terminase subunit 3 C-terminal nuclease domain,"endonuclease activity, ELISA",,"20 µM, added: dsDNA",104%
OB1OCc2cc(F)ccc21,"Genome polyprotein, NS2B-NS3 protease (dengue virus type 2, UniProt P29990)","enzyme activity, FRET",dengue virus serotype 2,"50 µM, added: substrate 50 µM",≤ 10%
CN1CCN(c2nc(N)c3ccccc3n2)CC1,"GABA-A receptor; GABA-A site (alpha1/beta2 interface), with gamma-2 subunit (Homo sapiens, UniProt P14867+P47870)",radioligand binding,,0.1 µM,4.6%
